Values quoted from earlier work, collected from citations in different studies.
Each line is one published result; not all experiments were run side by side. ± gives the spread as reported.
Chain of UniProt Q6PHR2 (whole entry, looked up): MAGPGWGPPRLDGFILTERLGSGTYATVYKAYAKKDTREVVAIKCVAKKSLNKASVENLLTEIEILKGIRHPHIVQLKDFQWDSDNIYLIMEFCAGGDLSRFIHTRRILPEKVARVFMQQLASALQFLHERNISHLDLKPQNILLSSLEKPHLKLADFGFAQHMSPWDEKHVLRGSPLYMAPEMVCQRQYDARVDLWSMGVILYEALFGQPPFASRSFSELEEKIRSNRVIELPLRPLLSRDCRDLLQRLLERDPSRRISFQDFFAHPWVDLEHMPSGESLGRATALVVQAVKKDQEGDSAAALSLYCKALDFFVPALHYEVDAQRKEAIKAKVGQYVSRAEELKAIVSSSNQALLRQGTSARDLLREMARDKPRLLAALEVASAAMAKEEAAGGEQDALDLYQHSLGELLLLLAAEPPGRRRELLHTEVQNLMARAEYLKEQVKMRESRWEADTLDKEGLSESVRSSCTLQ

Nc1cc(C(F)(F)F)c(-c2nc(N3CCOCC3)nc(N3CCOCC3)n2)cn1  remaining activity (Serine/threonine-protein kinase ULK3 (ULK3, Homo sapiens, UniProt Q6PHR2); enzyme activity; 10 µM; relative to: untreated): 100%
N#CCNC(=O)c1ccc(-c2ccnc(Nc3ccc(N4CCOCC4=O)cc3)n2)cc1  inhibition (CYP2C19; enzyme activity, inhibitor; concentration not given): no inhibition
COC(=O)[C@H](c1ccccc1Cl)N1CCc2sccc2C1  Km (CYP2C19): 0.05 µM
CC(C)(CO)c1cc2cc(NC(=O)C3(c4ccc5c(c4)OC(F)(F)O5)CC3)c(F)cc2n1C[C@@H](O)CO  Ki (CYP2C19; inhibitor): 22.5 µM
CO[C@H]1/C=C/O[C@@]2(C)Oc3c(C)c(O)c4c(O)c(c(/C=N/N5CCN(C)CC5)c(O)c4c3C2=O)NC(=O)/C(C)=C\C=C\[C@H](C)[C@H](O)[C@@H](C)[C@@H](O)[C@@H](C)[C@H](OC(C)=O)[C@@H]1C  EC50 (CYP2C19; enzyme induction; Simcyp compound file): 0.45 µM
CCCCNC(=O)NS(=O)(=O)c1ccc(C)cc1  CLint (CYP2C19; 4-hydroxylation pathway): 0.028 µL/min/pmol
FC(F)(F)C(F)(F)C(F)(F)C(F)(F)C(F)(F)C(F)(F)C(F)(F)C(F)(F)Br  IC50 (CYP2C19; inhibitor; Tox21 screening): inactive
COc1ccc2nc([S@+]([O-])Cc3ncc(C)c(OC)c3C)[nH]c2c1  fraction of intrinsic clearance (CYP2C19; 5-hydroxylation; in vitro): ~98%
C=C(C)C(=O)OCCC(F)(F)C(F)(F)C(F)(F)C(F)(F)C(F)(F)C(F)(F)F  activity (CYP2C19; concentration not given): inactive
CC(=O)Nc1ccc(O)cc1  Km (CYP2C19; substrate): 2000 µM
FC1(F)C(F)(F)C(F)(F)C2(F)C(F)(F)C(F)(F)C(F)(F)C(F)(F)C2(F)C1(F)F (centres unmarked)  IC50 (CYP2C19; inhibitor; Tox21 screening): inactive
COc1ccc2nc([S@@+]([O-])Cc3ncc(C)c(OC)c3C)[nH]c2c1  unbound fraction in microsomes (CYP2C19; mechanism-based inhibitor): 1
CCNS(=O)(=O)C(F)(F)C(F)(F)C(F)(F)C(F)(F)C(F)(F)C(F)(F)C(F)(F)C(F)(F)F  IC50 (CYP2C19; inhibitor): 51.2 ± 29.7 µM
C=C[C@@H]1C[C@]1(NC(=O)[C@@H]1C[C@@H]2CN1C(=O)[C@H](C(C)(C)C)NC(=O)O[C@@H]1C[C@H]1CCCCCc1nc3ccc(OC)cc3nc1O2)C(=O)NS(=O)(=O)C1CC1  IC50 (CYP2C19; inhibitor; human liver microsomes): > 100 µM

For quick reference, copied from above:
Nc1cc(C(F)(F)F)c(-c2nc(N3CCOCC3)nc(N3CCOCC3)n2)cn1  remaining activity (Serine/threonine-protein kinase ULK3 (ULK3, Homo sapiens, UniProt Q6PHR2); enzyme activity; 10 µM; relative to: untreated): 100%
COc1ccc2nc([S@@+]([O-])Cc3ncc(C)c(OC)c3C)[nH]c2c1  unbound fraction in microsomes (CYP2C19; mechanism-based inhibitor): 1
